Measured values pooled from the literature.
Each numbered part is a random draw from the data of one study; scales do not carry over between parts.

Set 1
Target: RNA binding protein fox-1 homolog 2, RRM domain, GST-SBP tag (RBFOX2, Homo sapiens, UniProt O43251-10, residues 100-194)
Method: RNA Bind-n-Seq
Form: RNA
Matrix: in vitro
Concentration: 365 nM
Notes: natural RNA segment, single round, ends assumed
Relative to: no-protein control
Direction: higher = stronger binding
Measurement: RBNS enrichment (R)
Construct (chain): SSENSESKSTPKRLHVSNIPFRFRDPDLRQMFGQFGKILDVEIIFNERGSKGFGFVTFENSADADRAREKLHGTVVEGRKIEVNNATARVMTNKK
Strand = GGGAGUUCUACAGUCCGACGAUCUGCUUCGAGUGACUGACCCCAGUGGUAUCCUGUGACAUGUAACAGCCAGGAGUGUUAAGCGUUCAGUGAUGUGGGGUGAAAAGUUACUACCUGUCAAGGUUUGUGUUACCUGGAAUUCUCGGGUGCCAA; result = 0.613
Strand = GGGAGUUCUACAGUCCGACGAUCCUCCUUGAGGUGCACAAGCACGGUCUCCUCUGAGUUCACCCCAGCCCACCCCCGCACCCACUAAUUCUGCUUUUCCUGCCCCUUGCUCCGUAAAAGUAUCAAAUACUUUCUGGAAUUCUCGGGUGCCAA; result = 1.52
Strand = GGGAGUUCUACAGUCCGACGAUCGACAGAGCUCACCUUCAGGCAGGAGCAGGGGCCUCAGCAUUCUGCAGUGAGUGUAGAGUGAAAGUCCUCCAUGUAGUAUUUUCCUGCCCCAGACCAGUCUUAUAGUAAAUUGGAAUUCUCGGGUGCCAA; result = 0.535
Strand = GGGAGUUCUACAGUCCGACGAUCCAAAGGAAUGUGAUUGGAUUUACUGGUUGGUUAAUUUCUUGUGAAAUAUUGUCAUAAUAGAAGCACAGCUUGAACAAAAGACUGAAUUCUGAUAUAAACUGUCAAUAUUGUGGAAUUCUCGGGUGCCAA; result = 7.68
Strand = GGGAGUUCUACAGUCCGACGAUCGAAAUUUCAGGCUGCUGCAAACAGCCAUACCUGGCAAGAGAAGUCUUCUAAUCUGGAAACCUGUGAAGCCUCAGCCCUUGAGAGGGCCCGAGAUGGAUCAGGGAGUUCUAUGGAAUUCUCGGGUGCCAA; result = 0.267
Strand = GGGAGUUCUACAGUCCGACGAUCGUUGAUAUAUACCUUCUGUAAAUAACUUUUUUUGAGAAGGAAAUAAAAUCAGCUGGAACUGAACCCUAAAUCUUGACUUUUGUCGUUAUUAUGCCCAAUGCCUAAGAUUGUGGAAUUCUCGGGUGCCAA; result = 0.35
Strand = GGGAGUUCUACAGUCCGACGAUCAGGAAGAUACCAUUCAGGAACCUGGACCAGAGGUGGUAAUAAAAGGGCUGGGUCAUUGGGCCUGCAGCAGCAUCUGCCCAGAUGCAUCCAAGAACUUGUUAACCCUCCCUUGGAAUUCUCGGGUGCCAA; result = 0.281
Strand = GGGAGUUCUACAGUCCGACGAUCCUUAGUAAAUUUGCAUUUGAUAUAUCAUUGAUGAGAUUUUGUUGUUAUGUAAUAUUCUUUGGCUACGCAUCUGUCCAGCAUCUUAUUAACCAUAAUACUGUGAUCAUUAUUGGAAUUCUCGGGUGCCAA; result = 1.67
Strand = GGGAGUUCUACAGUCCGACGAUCGGCAAAGCUUUGAGUGCCCAGAAGGGAAAGCUGUACCAGUUGCUAACCUGUCUUGUUUCAGGAGCCACCAUGUUUUUUUUUCAGUGUUAACAACAAUCAUGAUAAUUAAAUGGAAUUCUCGGGUGCCAA; result = 0.801
Strand = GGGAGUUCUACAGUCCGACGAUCACCUUACAAAAAACAUAAUUAUCUAGGAGUCCCACAUACUGGACCUACCCUAUUAUACCUCCAAGAGAUAAAGGGUAUGUUAGUGAGGACUUUUGCACACAAGUGCAUGCUGGAAUUCUCGGGUGCCAA; result = 0.443
Strand = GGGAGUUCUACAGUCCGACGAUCUAAGAGUGGGAGGCAGCCAAGACCCCCUUCCUUCAAAACCUCCCGGAAGUGGUUUCAGGCCCUCUAGUUGCCAUGACCAAUUUGUGUGUGUGUUUAAUUUUUGCUUCAAGUGGAAUUCUCGGGUGCCAA; result = 0.502
Strand = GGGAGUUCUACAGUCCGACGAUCUAUCUAUCUUAUUUCAGUACUUCGGCAAGAGAGAACCUAACUGUAUCUUUGAGGCGAUAGUAGAACACAGAGGCCAGUAACGGGUCGUAAUGACUUACUGUGGAUAACAAUGGAAUUCUCGGGUGCCAA; result = 0.478

Set 2
Target: Sal-like protein 4, full length isoform B (SALL4, Homo sapiens, UniProt Q9UJQ4-2, residues 1-616)
Method: universal PBM
Form: double-stranded DNA, one strand shown
Matrix: in vitro
Concentration: not given
Notes: 8-mer, flanks averaged, mean of replicates
Direction: higher = stronger binding
Measurement: E-score
Strand = GAGTGGTA; result = -0.0872
Strand = GACGTTCA; result = -0.00365
Strand = CGCAATTA; result = 0.185
Strand = CTGGGGAA; result = -0.341
Strand = CCTAGGGA; result = -0.0675
Strand = CAACATTG; result = 0.165
Strand = CCCGACAG; result = -0.185
Strand = AAGCCCAA; result = 0.102
Strand = CCGAGGAG; result = -0.198
Strand = CAACGTCG; result = -0.246
Strand = AAAAATTA; result = 0.407
Strand = GTTTCGGA; result = -0.032
Strand = AATTGACG; result = 0.145
Strand = GCGGGGCC; result = -0.418
Strand = TACGATAA; result = 0.325
Strand = GACGGCTA; result = -0.0154
Strand = TAAAGGTA; result = 0.225

Set 3
Target: RING finger protein unkempt homolog, zinc fingers 1-6, GST-SBP tag (UNK, Homo sapiens, UniProt Q9C0B0, residues 30-357)
Chain of UniProt Q9C0B0 (30-357, looked up): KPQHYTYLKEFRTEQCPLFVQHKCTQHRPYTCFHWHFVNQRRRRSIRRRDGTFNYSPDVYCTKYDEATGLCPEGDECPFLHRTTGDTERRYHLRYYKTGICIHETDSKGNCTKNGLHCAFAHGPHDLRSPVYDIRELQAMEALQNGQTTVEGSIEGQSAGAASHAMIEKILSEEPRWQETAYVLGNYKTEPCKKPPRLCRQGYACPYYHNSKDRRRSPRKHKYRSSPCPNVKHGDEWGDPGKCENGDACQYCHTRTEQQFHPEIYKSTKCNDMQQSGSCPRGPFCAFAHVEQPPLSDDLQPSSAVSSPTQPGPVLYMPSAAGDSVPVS
Method: RNA Bind-n-Seq
Form: RNA
Matrix: in vitro
Concentration: not given
Notes: RNA with constant flanks, human and mouse sites, ends assumed
Relative to: input RNA pool
Direction: higher = stronger binding
Measurement: bound/input enrichment
Strand = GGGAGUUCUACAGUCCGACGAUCGAACUGCCUCUUCGAUUCCCUGAGCCAGAUGCUGAGGAAAAAUGUAGAAAAGCGAGCUUUGCUGGAGAACAUGGAGGGCCUCUUCUUGGCUGUGGAUGAAAUUGUAGAUGGAGGGGUGAUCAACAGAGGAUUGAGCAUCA; result = 0.381 ratio
Strand = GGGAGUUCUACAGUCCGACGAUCUUCAGCCCCCUGAAAGCCUCUGGAGAUGGAGAAUCUCUGGAUGAAGAUUCCGAGUUCACCUUAGCCUCUGACUUUGAAAUUGGGCACUUUUUUCGUGAGCGCAUCGUGCCACGGGCUGUCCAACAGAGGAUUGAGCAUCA; result = 0.109 ratio
Strand = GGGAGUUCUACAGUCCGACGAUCCAAAAUGCUUCAAGUGAUAACCAAGGAAUUCAAUUAAGUGCAGUUCAAGCUGCUAGGAAGCUUUUGUCCAGUGAUCGAAAUCCACCAAUUGAUGACUUAAUAAAAUCUGGAAUAUUGCCCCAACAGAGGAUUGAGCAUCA; result = 0.345 ratio
Strand = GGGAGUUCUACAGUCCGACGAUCCAUCUGCAGGAUAUUAAAGUGAAGUUUUCAGACCCUGGACAACCUAUGUCUUUUGUGCUAGAGUUUCACUUUGAACCCAACGACUACUUCACCAAUCCUGUCCUGACGAAAACGUACAAGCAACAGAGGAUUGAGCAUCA; result = 0.122 ratio
Strand = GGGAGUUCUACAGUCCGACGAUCUGUGGCGCCAGAGGCCUAGGUGCUGACCCCGGCUUAGAGAGAAGAAAGAAUAUCUUGUUCUUUGUUAGAAAUCUCCACAGCAAGAGUAGUACUUGGUGGGAUGAACAUCUUUCUGAAGAACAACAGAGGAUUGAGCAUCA; result = 0.345 ratio
Strand = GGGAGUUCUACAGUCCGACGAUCCACUGCUGUGGUCGCCGGUCGGCCGAGGGGCCGCGAUACUGGUUGCCCGCGGUGUAAGCAGAAUUCGACGUGUAUCGCUGCCGUCAAGAUGGAGGGGCCUUUGUCCGUGUUCGGUGACCGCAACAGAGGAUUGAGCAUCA; result = 0.109 ratio
Strand = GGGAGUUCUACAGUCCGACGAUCGCUUCCCCGGGGUGACCGCGACUUGUUGGAGAUCUGAUGGCCAAAAGAAAGGAAGAAAAUUUCUGCUCUCCUGAAAAUGCUAAAAGACCAAGACAAGAAGAACUGGAAGAUUUUGAUAAACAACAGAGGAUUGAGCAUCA; result = 0.162 ratio
Strand = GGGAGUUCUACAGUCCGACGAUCAAGAUGUGAAAUUUGUCAUCAAUUAUGACUACCCUAACUCCUCAGAGGAUUAUAUUCAUCGAAUUGGAAGAACUGCUCGCAGUACCAAAACAGGCACAGCAUACACUUUCUUUACACCUACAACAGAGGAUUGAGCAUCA; result = 0.282 ratio
Strand = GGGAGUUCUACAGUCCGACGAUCCAGCUGCGAGGCCGCGGGUGCCCGCCGGGUGUGCUGAGCCGCCGCCAUGGGCAUCAAGUUUUUAGAAGUUAUUAAACCUUUCUGUGCAGUUCUACCAGAAAUUCAGAAGCCUGAAAGGAACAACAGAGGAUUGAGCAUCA; result = 1.52 ratio
Strand = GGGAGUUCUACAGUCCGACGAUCUGUGAGCAGAAAAGAGGCAAAGAUAAUAAAGCUAUUAUUGCAUCGAAUAUCAUGUACAUAGUAGGUCAAUACCCAAGAUUUUUGAGAGCACACUGGAAAUUUUUGAAGACAGUAGUAAACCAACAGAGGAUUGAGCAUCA; result = 0.256 ratio
Strand = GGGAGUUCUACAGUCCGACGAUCUAAAUAAGUGUUUAAAAUAUAUAUAUACACCAAGGUUCCACCCUAAGAAAAAGGCUGGACUAGUUUCAGUCCGAGCCCUUAAAUAAUCCUUCUGUUUUUUUUUACGUUGAAUCUUUCUGCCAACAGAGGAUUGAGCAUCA; result = 1.18 ratio

Set 4
Target: Prothrombin, mature alpha-thrombin (F2, Homo sapiens, UniProt P00734)
Method: aptamer microarray, sandwich
Form: DNA with 2'F-ANA
Matrix: in vitro
Concentration: 200 nM
Notes: whole 15-mer aptamer, many near background
Together with: Cy3 exosite-II aptamer, 400 nM
Direction: higher = stronger binding
Measurement: mean fluorescence intensity
Strand: GGTTGGTGTGGTTGG
Modification = 2'F-ANA at 2 4 6 7 8 9; result = 317 a.u.
Modification = 2'F-ANA at 6 8 13 15; result = 401 a.u.
Modification = 2'F-ANA at 3 4 5 8 9 10 13; result = 49.1 a.u.
Modification = 2'F-ANA at 2 3 5 7 8 9 11 12 13 15; result = 134 a.u.
Modification = 2'F-ANA at 1 2 4 5 7 8 9 10 12 14 15; result = 66 a.u.
Modification = 2'F-ANA at 4 6 8 9 10 13 14; result = 68.3 a.u.
Modification = 2'F-ANA at 1 3 7 8 9 10 11 12 13; result = 105 a.u.
Modification = 2'F-ANA at 3 4 6 9 11 12 15; result = 647 a.u.
Modification = 2'F-ANA at 3 6 9 10 11 12; result = 507 a.u.
Modification = 2'F-ANA at 1 2 3 4 7 8 12 13; result = 347 a.u.
Modification = 2'F-ANA at 1 3 7 10 11 12 13 14 15; result = 64.6 a.u.
Modification = 2'F-ANA at 2 6 12 15; result = 663 a.u.
Modification = 2'F-ANA at 1 3 6 7 8 9 10 15; result = 199 a.u.
Modification = 2'F-ANA at 6 7 8 12 13 15; result = 758 a.u.
Modification = 2'F-ANA at 1 3 5 6 10 12 13 14 15; result = 53 a.u.
Modification = 2'F-ANA at 2 3 8 9 11 12 13 14; result = 408 a.u.
Modification = 2'F-ANA at 1 2 5 6 7 9 11 12; result = 118 a.u.
Modification = 2'F-ANA at 3 4 5 8 11; result = 91.7 a.u.
Modification = 2'F-ANA at 6 8 9 11 13 14; result = 199 a.u.
Modification = 2'F-ANA at 2 3 7 8 10 12 14; result = 328 a.u.
Modification = 2'F-ANA at 1 3 6 7 11 14; result = 76.7 a.u.
Modification = 2'F-ANA at 1 5 6 10 12 15; result = 56 a.u.
Modification = 2'F-ANA at 3 6 7 8 9 10 11 13 15; result = 431 a.u.
Modification = 2'F-ANA at 3 5 8 9 10 11 12 13; result = 63.8 a.u.
Modification = 2'F-ANA at 1 2 3 4 8 9 12 13 14; result = 69.1 a.u.

For quick reference, copied from above (set 1):
Strand = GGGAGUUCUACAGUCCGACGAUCUGCUUCGAGUGACUGACCCCAGUGGUAUCCUGUGACAUGUAACAGCCAGGAGUGUUAAGCGUUCAGUGAUGUGGGGUGAAAAGUUACUACCUGUCAAGGUUUGUGUUACCUGGAAUUCUCGGGUGCCAA; result = 0.613
Strand = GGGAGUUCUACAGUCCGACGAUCCUCCUUGAGGUGCACAAGCACGGUCUCCUCUGAGUUCACCCCAGCCCACCCCCGCACCCACUAAUUCUGCUUUUCCUGCCCCUUGCUCCGUAAAAGUAUCAAAUACUUUCUGGAAUUCUCGGGUGCCAA; result = 1.52
Strand = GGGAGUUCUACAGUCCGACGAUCGACAGAGCUCACCUUCAGGCAGGAGCAGGGGCCUCAGCAUUCUGCAGUGAGUGUAGAGUGAAAGUCCUCCAUGUAGUAUUUUCCUGCCCCAGACCAGUCUUAUAGUAAAUUGGAAUUCUCGGGUGCCAA; result = 0.535
Strand = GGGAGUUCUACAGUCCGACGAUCCAAAGGAAUGUGAUUGGAUUUACUGGUUGGUUAAUUUCUUGUGAAAUAUUGUCAUAAUAGAAGCACAGCUUGAACAAAAGACUGAAUUCUGAUAUAAACUGUCAAUAUUGUGGAAUUCUCGGGUGCCAA; result = 7.68
Strand = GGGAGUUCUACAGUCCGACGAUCGAAAUUUCAGGCUGCUGCAAACAGCCAUACCUGGCAAGAGAAGUCUUCUAAUCUGGAAACCUGUGAAGCCUCAGCCCUUGAGAGGGCCCGAGAUGGAUCAGGGAGUUCUAUGGAAUUCUCGGGUGCCAA; result = 0.267
